Assay results pooled from the literature.
Lines come from different studies, so protocols differ. Values joined by “and” are separate records of one study, mostly repeats; a detail may differ. ± gives the spread as reported.

`Cc1nc2cccc(OCC(C)(C)C(=O)NC(C)C)c2c(N)c1C(=O)[O-].[Na+]` gave a revertant colonies of 35 ± 8 colonies/plate (Escherichia coli; reverse mutation, preincubation; WP2 uvrA; 2.0 mg/plate, with rat liver S9).
`Cc1ccn2c(-c3csc(Nc4ccccn4)n3)c(C)nc2c1` gave an IC50 of over 10 µM (CHO; cytotoxicity; 3 days).
Under “Δlog K, 14-hydroxylation effect”, `COc1ccc2c3c1O[C@H]1[C@H](O)CC[C@@]4(O)[C@@H](C2)N(C)CC[C@]314` is recorded as 0.66 log units (pH-potentiometric titration; baseline: O-methyl derivative).
With `Cc1ccc(OCCN(C)C)cc1C(=O)N[C@H](C)c1cc(-c2cncs2)nc2ccccc12` the viability was 99.8% and 88.1% (Vero E6; 31.25 µM).
`O=C1NC2(CC2)COc2ncc(F)cc2[C@H]2COCCN2c2ccn3ncc1c3n2`: “aspartate aminotransferase activity” 99.7 ± 11.1 U/L (Sprague-Dawley rat, male, serum; oral, 2.5 mg/kg/day, 4 weeks daily, end of treatment).
`Cc1ccc(OCCN(C)C)cc1C(=O)N[C@H](C)c1cc(-c2ccc(CNC3CCCC3)s2)nc2ccccc12` has a viability of 102% and 103% (Vero E6; 3.906 µM).
`Cn1nc(CCN)c(=O)c2c(=O)[nH]c(N)nc21` has an intracellular accumulation of 4.56 µM (Escherichia coli; LC-MS/MS; BW25113; 100 µM, 10 min, 37 °C).
The Papp of `O=C1CC[C@H]2[C@H]3Cc4ccc(O)c5c4[C@@]2(CCN3CCc2ccccc2)[C@H]1O5` is reported as 35.9 ×10⁻⁶ cm/s (PAMPA-BBB; porcine brain lipid; 500 µM, 4 h, pH 7.4, 1% DMSO).
For `Cc1ccc(OC[C@H]2CCCN2C)cc1C(=O)N[C@H](C)c1cc(-c2cnn(C)c2)nc2ccccc12`, the viability was 23.2% (African green monkey cells; 62.5 µM).

A few entries again:
`Cc1nc2cccc(OCC(C)(C)C(=O)NC(C)C)c2c(N)c1C(=O)[O-].[Na+]` gave a revertant colonies of 35 ± 8 colonies/plate (Escherichia coli; reverse mutation, preincubation; WP2 uvrA; 2.0 mg/plate, with rat liver S9).
